Measured values pooled from the literature.
A part holds a random share of what one study measured. pIC50: −log10 of the molar value.
UniProt P11229, sequence (whole entry, looked up): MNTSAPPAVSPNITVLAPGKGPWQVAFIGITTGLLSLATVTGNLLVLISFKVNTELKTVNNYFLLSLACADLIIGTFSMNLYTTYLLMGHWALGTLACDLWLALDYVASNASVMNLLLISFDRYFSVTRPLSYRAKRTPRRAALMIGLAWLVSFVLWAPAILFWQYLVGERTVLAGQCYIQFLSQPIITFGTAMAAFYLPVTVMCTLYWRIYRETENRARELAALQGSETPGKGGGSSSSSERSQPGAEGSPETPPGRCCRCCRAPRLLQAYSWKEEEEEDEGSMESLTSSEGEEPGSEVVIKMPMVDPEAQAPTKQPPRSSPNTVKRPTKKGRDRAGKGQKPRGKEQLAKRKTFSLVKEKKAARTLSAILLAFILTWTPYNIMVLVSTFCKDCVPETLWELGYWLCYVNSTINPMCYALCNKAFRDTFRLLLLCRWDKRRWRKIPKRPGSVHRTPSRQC
UniProt Q9HBY8, sequence (whole entry, looked up): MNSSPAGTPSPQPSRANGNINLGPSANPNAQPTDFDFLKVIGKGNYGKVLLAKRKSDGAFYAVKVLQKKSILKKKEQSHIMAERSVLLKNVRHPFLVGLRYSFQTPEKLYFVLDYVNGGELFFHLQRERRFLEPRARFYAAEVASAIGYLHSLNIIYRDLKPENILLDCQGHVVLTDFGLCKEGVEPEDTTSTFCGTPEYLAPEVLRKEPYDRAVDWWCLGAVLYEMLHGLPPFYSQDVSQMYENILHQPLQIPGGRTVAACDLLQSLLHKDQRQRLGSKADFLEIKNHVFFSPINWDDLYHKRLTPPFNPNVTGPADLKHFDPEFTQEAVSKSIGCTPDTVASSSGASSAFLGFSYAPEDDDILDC
UniProt O15111, sequence (whole entry, looked up): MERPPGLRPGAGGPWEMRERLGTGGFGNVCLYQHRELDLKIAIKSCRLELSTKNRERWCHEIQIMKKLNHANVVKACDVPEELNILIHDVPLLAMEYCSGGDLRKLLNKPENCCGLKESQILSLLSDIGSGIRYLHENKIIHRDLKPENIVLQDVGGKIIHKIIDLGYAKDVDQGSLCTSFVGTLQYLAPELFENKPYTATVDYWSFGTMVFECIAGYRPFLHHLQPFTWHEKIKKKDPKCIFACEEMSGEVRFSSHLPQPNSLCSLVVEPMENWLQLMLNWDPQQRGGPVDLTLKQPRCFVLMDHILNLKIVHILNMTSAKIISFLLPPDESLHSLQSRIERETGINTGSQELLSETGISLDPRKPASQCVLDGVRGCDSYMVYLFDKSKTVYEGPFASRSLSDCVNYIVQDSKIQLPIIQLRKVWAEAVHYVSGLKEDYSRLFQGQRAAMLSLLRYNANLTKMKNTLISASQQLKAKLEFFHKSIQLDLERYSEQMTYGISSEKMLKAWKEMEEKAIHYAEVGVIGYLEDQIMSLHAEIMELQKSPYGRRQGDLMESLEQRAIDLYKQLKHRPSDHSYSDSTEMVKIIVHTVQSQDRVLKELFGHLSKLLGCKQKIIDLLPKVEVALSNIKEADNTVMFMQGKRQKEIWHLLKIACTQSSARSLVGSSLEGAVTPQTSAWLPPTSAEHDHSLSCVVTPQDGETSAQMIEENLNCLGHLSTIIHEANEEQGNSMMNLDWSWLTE
UniProt P78362, sequence (whole entry, looked up): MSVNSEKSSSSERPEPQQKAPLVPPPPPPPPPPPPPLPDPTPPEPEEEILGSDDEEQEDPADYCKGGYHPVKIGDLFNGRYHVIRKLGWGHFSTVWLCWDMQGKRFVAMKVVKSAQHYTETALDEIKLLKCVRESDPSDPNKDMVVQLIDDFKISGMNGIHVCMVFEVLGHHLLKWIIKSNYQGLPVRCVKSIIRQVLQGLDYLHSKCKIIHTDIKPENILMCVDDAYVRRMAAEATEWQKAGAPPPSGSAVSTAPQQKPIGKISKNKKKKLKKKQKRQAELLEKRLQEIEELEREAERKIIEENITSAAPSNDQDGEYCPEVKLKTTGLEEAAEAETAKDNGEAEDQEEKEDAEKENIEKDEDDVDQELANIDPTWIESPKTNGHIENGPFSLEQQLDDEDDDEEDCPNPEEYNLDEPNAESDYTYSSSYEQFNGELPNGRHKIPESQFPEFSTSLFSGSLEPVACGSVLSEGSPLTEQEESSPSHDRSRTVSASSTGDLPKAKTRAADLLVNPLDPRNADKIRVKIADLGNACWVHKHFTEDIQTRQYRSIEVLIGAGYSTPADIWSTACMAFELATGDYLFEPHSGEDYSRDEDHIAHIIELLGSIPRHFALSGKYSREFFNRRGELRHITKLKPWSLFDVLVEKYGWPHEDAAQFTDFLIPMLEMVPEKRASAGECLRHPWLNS
UniProt P21918, sequence (whole entry, looked up): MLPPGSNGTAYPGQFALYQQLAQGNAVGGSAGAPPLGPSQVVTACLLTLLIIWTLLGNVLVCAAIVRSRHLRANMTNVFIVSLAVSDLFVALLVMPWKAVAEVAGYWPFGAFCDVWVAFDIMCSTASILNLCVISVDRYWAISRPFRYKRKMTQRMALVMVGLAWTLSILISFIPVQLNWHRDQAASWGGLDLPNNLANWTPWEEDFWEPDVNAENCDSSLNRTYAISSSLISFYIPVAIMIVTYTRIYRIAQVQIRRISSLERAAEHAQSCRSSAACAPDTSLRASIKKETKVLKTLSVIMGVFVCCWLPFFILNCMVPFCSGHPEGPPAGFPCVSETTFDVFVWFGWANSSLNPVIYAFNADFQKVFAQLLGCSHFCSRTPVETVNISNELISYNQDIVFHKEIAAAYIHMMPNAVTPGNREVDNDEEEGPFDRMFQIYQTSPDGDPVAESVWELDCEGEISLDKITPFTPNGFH
UniProt P08908, sequence (whole entry, looked up): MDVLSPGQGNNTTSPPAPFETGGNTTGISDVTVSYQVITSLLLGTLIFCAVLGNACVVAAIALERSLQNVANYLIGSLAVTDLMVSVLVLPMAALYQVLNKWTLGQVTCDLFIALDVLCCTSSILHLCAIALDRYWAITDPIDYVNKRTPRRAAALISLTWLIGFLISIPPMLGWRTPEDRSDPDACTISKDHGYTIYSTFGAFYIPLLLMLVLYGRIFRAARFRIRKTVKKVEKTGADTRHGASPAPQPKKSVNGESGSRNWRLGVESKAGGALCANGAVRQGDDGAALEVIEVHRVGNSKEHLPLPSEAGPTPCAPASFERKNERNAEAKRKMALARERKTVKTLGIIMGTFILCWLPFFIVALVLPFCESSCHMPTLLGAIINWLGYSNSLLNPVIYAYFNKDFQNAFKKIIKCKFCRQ
UniProt Q9HC98, sequence (whole entry, looked up): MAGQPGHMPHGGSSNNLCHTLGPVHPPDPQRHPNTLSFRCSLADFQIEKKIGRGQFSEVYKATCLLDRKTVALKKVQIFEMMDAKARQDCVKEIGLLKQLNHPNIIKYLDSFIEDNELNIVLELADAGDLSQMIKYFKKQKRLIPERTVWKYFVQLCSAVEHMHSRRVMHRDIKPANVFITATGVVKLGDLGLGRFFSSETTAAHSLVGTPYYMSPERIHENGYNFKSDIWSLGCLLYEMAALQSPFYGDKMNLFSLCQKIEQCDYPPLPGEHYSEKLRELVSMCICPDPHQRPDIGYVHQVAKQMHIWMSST
UniProt P35372, sequence (whole entry, looked up): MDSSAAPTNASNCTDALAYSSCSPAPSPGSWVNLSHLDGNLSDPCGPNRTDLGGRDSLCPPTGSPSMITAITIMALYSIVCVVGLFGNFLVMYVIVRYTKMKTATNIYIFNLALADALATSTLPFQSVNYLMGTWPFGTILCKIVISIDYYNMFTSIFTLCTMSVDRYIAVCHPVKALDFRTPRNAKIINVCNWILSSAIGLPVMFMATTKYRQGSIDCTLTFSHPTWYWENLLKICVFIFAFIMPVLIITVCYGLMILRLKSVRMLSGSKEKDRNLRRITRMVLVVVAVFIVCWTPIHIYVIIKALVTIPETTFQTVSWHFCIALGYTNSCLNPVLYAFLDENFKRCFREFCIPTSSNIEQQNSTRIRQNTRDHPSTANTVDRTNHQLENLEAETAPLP
UniProt P43250, sequence (whole entry, looked up): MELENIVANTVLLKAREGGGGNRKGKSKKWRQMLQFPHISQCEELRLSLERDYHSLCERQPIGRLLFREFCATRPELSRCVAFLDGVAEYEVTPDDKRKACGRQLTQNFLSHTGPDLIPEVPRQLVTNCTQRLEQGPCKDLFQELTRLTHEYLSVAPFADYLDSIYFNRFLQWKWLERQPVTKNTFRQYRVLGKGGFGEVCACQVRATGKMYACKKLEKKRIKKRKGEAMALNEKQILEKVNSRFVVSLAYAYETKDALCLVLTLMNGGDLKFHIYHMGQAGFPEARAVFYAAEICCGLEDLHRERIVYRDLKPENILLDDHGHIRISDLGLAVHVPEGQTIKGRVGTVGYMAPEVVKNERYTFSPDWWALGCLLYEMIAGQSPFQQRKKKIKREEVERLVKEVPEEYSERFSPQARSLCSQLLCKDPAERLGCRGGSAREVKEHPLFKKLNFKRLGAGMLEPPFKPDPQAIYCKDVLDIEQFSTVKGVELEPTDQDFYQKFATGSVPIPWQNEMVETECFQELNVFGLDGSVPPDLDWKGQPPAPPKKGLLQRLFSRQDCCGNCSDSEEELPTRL

Study 1
Target: Beta-1 adrenergic receptor (ADRB1, Homo sapiens, UniProt P08588)
UniProt P08588, sequence (whole entry, looked up): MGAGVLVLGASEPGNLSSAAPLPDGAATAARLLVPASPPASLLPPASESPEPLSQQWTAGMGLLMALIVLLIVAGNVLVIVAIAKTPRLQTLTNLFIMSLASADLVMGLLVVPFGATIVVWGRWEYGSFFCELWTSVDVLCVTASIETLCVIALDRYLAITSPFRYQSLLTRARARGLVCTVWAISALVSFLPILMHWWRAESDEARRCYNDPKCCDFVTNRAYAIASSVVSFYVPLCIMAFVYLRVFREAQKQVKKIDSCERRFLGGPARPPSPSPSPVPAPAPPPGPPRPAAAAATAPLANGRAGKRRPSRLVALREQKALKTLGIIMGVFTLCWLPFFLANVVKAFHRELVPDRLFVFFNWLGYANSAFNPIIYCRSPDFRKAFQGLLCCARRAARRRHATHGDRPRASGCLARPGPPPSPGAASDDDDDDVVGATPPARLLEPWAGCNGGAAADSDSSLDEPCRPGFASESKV
Action: antagonist
Structure (SMILES)	pIC50
CNc1ccc2c(CCN)cc(=O)oc2c1	4.50
Fc1cc(C2=CC3CCC(C2)N3Cc2ccc3ccccc3n2)ccc1-c1ccccc1 (stereo not drawn)	≤ 4.00
O=C1C=CC(=O)c2c1ccc1c2ccc2ccccc21	≤ 4.00
Nc1ncnc2c1ncn2[C@@H]1O[C@@H]2COP(O)(=S)O[C@H]2[C@H]1O (stereo partly drawn)	≤ 4.00
C[C@H](Cc1ccc2c(c1)OC(C(=O)O)(C(=O)O)O2)NC[C@H](O)c1cccc(Cl)c1	≤ 4.00

Study 2
Compound: CC(C)(C)c1cc(C=C(C#N)C#N)cc(Br)c1O
Observed: enzyme activity
Action: inhibitor
Tested at: 0.5 µM
target	baseline	remaining activity
G protein-coupled receptor kinase 6 (GRK6, Homo sapiens, UniProt P43250)		94.6%
Serine/threonine-protein kinase Sgk2 (SGK2, Homo sapiens, UniProt Q9HBY8)		120%
Inhibitor of nuclear factor kappa-B kinase subunit alpha (CHUK, Homo sapiens, UniProt O15111)	control	89.7%
SRSF protein kinase 2 (SRPK2, Homo sapiens, UniProt P78362)		109%
Serine/threonine-protein kinase Nek6 (NEK6, Homo sapiens, UniProt Q9HC98)		111%

Study 3
Compound: O=C(NNS(=O)(=O)c1ccccc1F)c1cc(F)cc(-c2ccccn2)c1
Observed: cell-free assay
Tested at: 10 µM
target	inhibition [%]
D(1B) dopamine receptor (DRD5, Homo sapiens, UniProt P21918)	4.57
5-hydroxytryptamine receptor 1A (HTR1A, Homo sapiens, UniProt P08908)	16
Mu-type opioid receptor (OPRM1, Homo sapiens, UniProt P35372)	3.45
Muscarinic acetylcholine receptor M1 (CHRM1, Homo sapiens, UniProt P11229)	0.14

Mixed results
SMILES	species	sample	route	dose	measurement	result
CC(=O)N[C@@H](Cc1c[nH]c2ccccc12)C(=O)N[C@@H](CCC(=O)C=[N+]=[N-])C(=O)OC(C)C	C57BL/6 CES1-/- mouse	blood	intravenous	1 mg/kg equivalent	white blood cell count	5.82

Repeated from above (study 1):
Structure (SMILES)	pIC50
Fc1cc(C2=CC3CCC(C2)N3Cc2ccc3ccccc3n2)ccc1-c1ccccc1 (stereo not drawn)	≤ 4.00
